# Published values from different studies.
# Each numbered part is a random draw from the data of one study; scales do not carry over between parts.

# Study 1
# Target: Interferon regulatory factor 5, full length, phosphomimetic (IRF5, Homo sapiens, UniProt Q13568-2, residues 1-514, K96S/S451D/S453D/S456D/S462D)
# Method: protein-binding microarray
# Molecule type: double-stranded DNA, one strand shown
# Matrix: in vitro
# Concentration: 250 nM
# Setting: 60-bp whole probe
# Added: salmon DNA 0.4 mg/ml
# Reference: random background probes
# Direction: higher = stronger binding
# Constant ends, left off below: GCCTAGCAC … GTCTTGATTCGCTTGACGCTGCTG
Sequence,log fluorescence
GACGGTCTCCTACTGCTGAAGTGCTAG,-0.304 z-score
GACCGACTGGGACTGGGGACGTGCTAG,-0.498 z-score
TGAGATTTCGGGACTGGATTAGTGCTA,1.52 z-score
AAGATTCTAGCCTATAGAAGCGTGCTA,-0.2 z-score
GACGGTTTCCTACTCCTGACGTGCTAG,0.514 z-score
TCACCTTTCGGAATACCACTGTGCTAG,5.55 z-score
GACGATATCGGGATTGGAGACGTGCTA,1.1 z-score
TTAGGAGTGGTACATGAAGCGTGCTAG,-0.344 z-score
TCATTAATGAAAATTCTAACTGTGCTA,0.881 z-score
TCAAACTTTTTTCTGATACTGTGCTAG,1.13 z-score
TCACTGCTCCTCTTTTTTACTGTGCTA,0.389 z-score
TCATCCATCACTTTCCAACTGTGCTAG,0.937 z-score
TTAGGACTGGGTTTCGGTAAGTGCTAG,6.5 z-score
TTAGATTTCCGTTTCGATTAGTGCTAG,8.97 z-score
CCCCATCTTGTTCCCAGAGAGTGCTAG,-0.183 z-score
TTAGGACTGCTTTTCTTTTAGTGCTAG,0.5 z-score
GACGGACTGGGTTGCGGGACGTGCTAG,-0.549 z-score
TCATGTTTTGTTTTTCAACTGTGCTAG,1.58 z-score

# Study 2
# Target: Histone acetyltransferase KAT6A, winged helix 1, GST fusion (KAT6A, Homo sapiens, UniProt Q92794, residues 1-85)
# Method: protein binding microarray
# Molecule type: double-stranded DNA, one strand shown
# Matrix: in vitro
# Concentration: not given
# Setting: 8-mer, flanks averaged, mean of 2 arrays, mostly near background
# Reference: not given
# Direction: higher = stronger binding
# Target sequence (chain): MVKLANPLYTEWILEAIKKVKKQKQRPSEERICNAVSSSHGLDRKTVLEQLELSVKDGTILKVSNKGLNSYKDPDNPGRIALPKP
Sequence,E-score
CTACACAG,-0.149
CCTGACAG,-0.205
CAGCCTCC,-0.119
CCGGTCCA,0.0901
GCTGAGGA,0.0455
CAAATGAG,-0.347
CGCTCTTA,0.291
AGGGTTCG,-0.0906
ACGAAGAT,-0.148
TACGCGGA,0.208
CGCAGTGC,0.297
AGCTCAGC,-0.115
AGTCCCCA,-0.302
AAATTGCC,0.0175
ATTAGCAG,-0.153
AACCCCGT,0.287
GCCATTTA,-0.201
GTAGCAGA,-0.215
ATATGATC,-0.00448
ATCACAGC,-0.0071
AAATCTTC,-0.0125
ATAATTGA,-0.016
ATAGGCCA,0.0246
GGCGCATA,0.313
GACTTGCC,-0.0591

# Study 3
# Target: RING finger protein unkempt homolog, zinc fingers 1-6, GST-SBP tag (UNK, Homo sapiens, UniProt Q9C0B0, residues 30-357)
# Method: RNA Bind-n-Seq
# Molecule type: RNA
# Matrix: in vitro
# Concentration: not given
# Setting: RNA with constant flanks, ends assumed
# Reference: input RNA pool
# Direction: higher = stronger binding
# Construct (chain): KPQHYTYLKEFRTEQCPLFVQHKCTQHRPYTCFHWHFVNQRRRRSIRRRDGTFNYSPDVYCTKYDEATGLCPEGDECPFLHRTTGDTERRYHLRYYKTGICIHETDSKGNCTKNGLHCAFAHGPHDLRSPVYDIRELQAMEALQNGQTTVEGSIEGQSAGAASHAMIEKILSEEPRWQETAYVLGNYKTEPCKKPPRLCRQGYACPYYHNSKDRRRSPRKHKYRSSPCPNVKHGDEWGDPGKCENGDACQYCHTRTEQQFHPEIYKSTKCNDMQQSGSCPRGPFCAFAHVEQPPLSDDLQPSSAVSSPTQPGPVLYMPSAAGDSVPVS
Sequence,bound/input enrichment [ratio]
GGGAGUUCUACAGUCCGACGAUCAUUUGGUCAAGGCCUGAAAGCACCCAGGUGCAGAAUAUCUUGCGCCAGAGAACAGAAAACACCGAUAUAAAAAAAUACUGUGUACAUUAUCUUGAGGAUGUAGGUUCUUUUGAAUACACUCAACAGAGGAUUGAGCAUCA,0.14
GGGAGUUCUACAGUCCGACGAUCGUAUUUAAGUUUGCUGUAGAUUGUGUGUGUGUGUGCUAAGUAAAAGUUCCAUGAUUCACAAUUUCCGUAUUAACCCAUGUUGCAAAAGCUGUUACUGGCCAACAGAUUGUAAUGAUGUGUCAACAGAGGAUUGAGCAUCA,0.406
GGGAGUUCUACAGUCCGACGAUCAUAUAGACCUAUGAUGUACAGGUACGACAUGUAUAGGUUACCUAGAUGUUAUGAGAAAUUUCCGUUUAUUGUGAGUACUCAAGUUGCUUAGAGAGCCACCAGGGUGAUUUGCUGCUGGCUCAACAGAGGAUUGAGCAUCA,2.69
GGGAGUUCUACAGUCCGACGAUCAUGCCAAGUGUUUCUAAGCUUUAUUCUGAGAACUGACUUUCAACCUUCAGGUAUGCAUUUACCGAAUUUGCUUCAUUUGAAGAUGCUAAAGAAGCUUUAAAUUCCUGUAAUAAAAUGGAACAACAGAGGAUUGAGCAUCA,0.0406
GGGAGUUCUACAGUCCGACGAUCCCUCAGAAGAGGAAUCUUGCUUCUUUAAAGCUCUCAUGGUGCUUUCAUUUUAAAGGAGACUUCCGAAGAAAAAGAAUGGAAUGAAGUUUUGAGUUACAAUUCAAAUUUGGGGAUCAAUCCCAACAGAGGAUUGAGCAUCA,0.0991
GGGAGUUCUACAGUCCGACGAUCGGAAUGGAUGCUCUUCCUUAUAUUGAUUUAAUUGACCCAGCUGAGAUUGAUCUCCUAUUAAUCCGUCAUUUCCAUUUGGAUCACUGUGGAGCUCUGCCCUGGUUUCUACAGAAGACAAGUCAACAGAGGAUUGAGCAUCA,0.422
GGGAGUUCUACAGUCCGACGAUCAGCUUACUGUAUUAGUCAUUUUUAGCCCAUAAUUAAAACAUGAUCACUUUUACACAGGUGCCGUAUGGUGCAUUUCAUUCCUUAUUUAUAAAUUAACUGAAAUUACAGUUUGCUAUAAUACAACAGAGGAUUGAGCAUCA,5.42
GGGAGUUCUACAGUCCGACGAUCCCAAUCGGACUGCACAAGAAGCGGAUUGAACUGUCUGUUCUUUCAUACCAUUCCUCCUUCCGCAUCAGAAAGAGCCGGUUGGUUCAUGGGUACAUUGUUUUUUAUUCAGCCAAACGUAAGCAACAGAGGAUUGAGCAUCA,0.374

# Study 4
# Target: Sal-like protein 4, full length isoform B (SALL4, Homo sapiens, UniProt Q9UJQ4-2, residues 1-616)
# Method: universal PBM
# Molecule type: double-stranded DNA, one strand shown
# Matrix: in vitro
# Concentration: not given
# Setting: 8-mer, flanks averaged, mean of replicates
# Direction: higher = stronger binding
Sequence,E-score
CATTTTCG,0.0708
GGAAACGA,0.0449
CCCGGCCA,-0.389
AGCAACAC,-0.135
AAATGTCA,0.16
AGGGTAGA,-0.143
ATCCGAAC,-0.0766
ATTCGATG,-0.00831
CGTGACGA,-0.0851
CGAACTAA,0.0744
CTCTCGCC,-0.231
GTTGAAAC,0.0825
CGGTATTC,-0.0763
TAGGCAGA,0.143
GTACCTTA,0.105
CTTCAGTC,-0.0791
AATTCGTA,0.252
GATACGGC,-0.194
CTACCTTC,0.133
CGAAGCGC,-0.224
AAGGTGAC,0.0212
GCGTGTTA,0.0994
CCTGCCTC,-0.273
CTATAGCC,-0.12
